{"data": "Published values pooled from the literature", "note": "Every numbered part comes from another study and shows a few of its results, in no order."}
{"data": "Study 1", "target": "Fragile X messenger ribonucleoprotein 1, C-terminal low-complexity region (Fmr1, Mus musculus, UniProt P35922)", "method": "RNA Bind-n-Seq", "molecule type": "RNA", "medium": "in vitro", "concentration": "200 nM", "setting": "whole 134-nt RNA, ends assumed", "added": "150 mM LiCl", "reference": "input library", "reading": "higher = stronger binding", "all molecules": "7-deaza-guanosine replaces G"}
{"Strand": "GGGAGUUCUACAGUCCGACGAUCUGCGGGCCGAGAAUCGGGAGCUGGGCAAACGCGUACAGGCACUGCAGGAGGAGAGUCGCUACCUACGGGCAGUCUUAGCCAACGAGACUGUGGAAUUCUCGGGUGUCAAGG", "log2 enrichment": -0.185}
{"Strand": "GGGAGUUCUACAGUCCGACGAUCCACAGACAACACGCACCCACACAGACCCAGAGGGAAGGGGUUGGGAUGGGGACAGGGUGCACAGCAGGGCGGGGUAGGACCCCAGCCCCUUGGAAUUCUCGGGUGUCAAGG", "log2 enrichment": -0.709}
{"Strand": "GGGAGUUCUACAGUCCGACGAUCUAACUUUAGAGGAGGAUCUGAUGGAUAUGGCAGUGGACGAGGAUUUGGGGAUGGCUAUAAUGGGUAUGGAGGAGGACCUGGAGGUGGCAAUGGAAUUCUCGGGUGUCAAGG", "log2 enrichment": -0.984}
{"Strand": "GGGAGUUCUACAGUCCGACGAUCCUCAAGUCCUGUGCUACACAUCGUAUGUACCGAAUCGGGAGGGGAGGGGAGGGAAAGUAUUAUGUUACGCCGUUCGGAUCUGCACUUCCAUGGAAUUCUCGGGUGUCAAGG", "log2 enrichment": -0.536}
{"Strand": "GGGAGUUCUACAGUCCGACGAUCCACAGACAACACGCACCCACACAGACACAGAGGGAAGGGGUUGGGAUGGGGACAGGGUGCACAGCAGGGCGGGGUAGGACCCCAGCAAAUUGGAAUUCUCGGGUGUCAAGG", "log2 enrichment": -0.233}
{"Strand": "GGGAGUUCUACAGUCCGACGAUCGUCCUGUGCUACACAUCGUAUGUACCGAAUCGGGUGGGUUUUUUUGGGUUUUUUUGGGAAAGUAUUAUGUUACGCCGUUCGGAUCUGCACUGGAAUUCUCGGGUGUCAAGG", "log2 enrichment": -0.077}
{"Strand": "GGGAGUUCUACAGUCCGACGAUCAGUCCUGUGCUACACAUCGUAUGUACCGAAUCGGUUUUUUUGGUUUGGUUUUUUUGGAAAGUAUUAUGUUACGCCGUUCGGAUCUGCACUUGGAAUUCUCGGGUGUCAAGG", "log2 enrichment": -2.74}
{"Strand": "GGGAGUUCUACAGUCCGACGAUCUAACUUUAGAGGAGGAUCUGAUGGAUAUGGCAGUGGUCGUGGAUUUGGGGAUGGCUAUAAUGGGUAUGGAGGAGGACCUGGAGGUGGCAAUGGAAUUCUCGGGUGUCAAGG", "log2 enrichment": "9.53e-05"}
{"data": "Study 2", "target": "Histone acetyltransferase KAT6A, both winged helices, GST fusion (KAT6A, Homo sapiens, UniProt Q92794, residues 1-181)", "method": "protein binding microarray", "molecule type": "double-stranded DNA, one strand shown", "medium": "in vitro", "concentration": "not given", "setting": "8-mer, flanks averaged, mean of 2 arrays, mostly near background", "reference": "not given", "reading": "higher = stronger binding", "Construct (chain)": "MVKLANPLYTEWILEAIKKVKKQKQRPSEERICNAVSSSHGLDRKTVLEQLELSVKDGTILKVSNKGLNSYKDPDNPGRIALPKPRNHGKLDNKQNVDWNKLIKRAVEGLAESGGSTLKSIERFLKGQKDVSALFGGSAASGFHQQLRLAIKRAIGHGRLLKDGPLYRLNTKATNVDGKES"}
{"Strand": "CGGCGTTA", "E-score": 0.273}
{"Strand": "CACCACAC", "E-score": -0.0343}
{"Strand": "GACCGCAC", "E-score": 0.154}
{"Strand": "CCAAGCCA", "E-score": -0.142}
{"Strand": "ACCGCTCT", "E-score": 0.134}
{"Strand": "CGACCTAA", "E-score": 0.0236}
{"Strand": "AAATGCGA", "E-score": 0.0623}
{"Strand": "AACACCCC", "E-score": -0.117}
{"Strand": "CAGAACAA", "E-score": -0.0329}
{"Strand": "GCATCTAA", "E-score": -0.0529}
{"Strand": "GCACGCTA", "E-score": 0.155}
{"Strand": "ATAGTACA", "E-score": -0.0907}
{"Strand": "ACAGATAA", "E-score": -0.127}
{"Strand": "CGAACACC", "E-score": 0.0735}
{"Strand": "AGGGTGCG", "E-score": 0.0577}
{"Strand": "CAACACGC", "E-score": 0.0623}
{"Strand": "CCTTCAGC", "E-score": -0.149}
{"data": "Study 3", "target": "RNA binding protein fox-1 homolog 2, RRM domain, GST-SBP tag (RBFOX2, Homo sapiens, UniProt O43251-10, residues 100-194)", "method": "RNA Bind-n-Seq", "molecule type": "RNA", "medium": "in vitro", "concentration": "365 nM", "setting": "natural RNA segment, single round, ends assumed", "reference": "no-protein control", "reading": "higher = stronger binding", "Target sequence (chain)": "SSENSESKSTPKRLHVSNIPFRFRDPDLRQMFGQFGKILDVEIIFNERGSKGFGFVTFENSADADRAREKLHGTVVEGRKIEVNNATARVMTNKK"}
{"Strand": "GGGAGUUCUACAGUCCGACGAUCGCCUCUGAAGUUUGCAGUAUGCUUUCAAAUGAAAUAAUAUACUUCCAUUGAUUCAGGAAGCAGAUUUUUUGAGUGCCUAUAUGUGAGACAGUGUGCUGGUUGAAGGCCUGUGGAAUUCUCGGGUGCCAA", "RBNS enrichment (R)": 0.304}
{"Strand": "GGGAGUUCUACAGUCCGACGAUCUGUCUAACAGUUUAAUUGCUCCAGAGCUUUAUAGGUAUUUAAAGACUGAUUAGUAAAUAAAAUUGCCUAUGGCAGGACUUUCUUAAAUUAAUCCUACUCCUUAAAGUGAUUGGAAUUCUCGGGUGCCAA", "RBNS enrichment (R)": 0.35}
{"Strand": "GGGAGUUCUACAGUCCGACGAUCCAUGUAUUUGCUACAAAGUAUUGUACUUGUCUCAAUGGGAAUGGUGUAAAAAACAAAAGGCCUUAUGUGAUCUGUAUCAUAGUUAAUAAAUGAAUCUUGUAAAAAACCAAUGGAAUUCUCGGGUGCCAA", "RBNS enrichment (R)": 0.356}
{"Strand": "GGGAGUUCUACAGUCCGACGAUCCUCCCAGUCUCACCUACCAUACUGUGCCAUCUCUAGCCAAGCAAGCCAGGUUUAGAGAAGGGUCAAAAAAAAAAAAAAGGGUUGUUUACUUCCAACUUGUUCUGAUGCCCUGGAAUUCUCGGGUGCCAA", "RBNS enrichment (R)": 1.28}
{"Strand": "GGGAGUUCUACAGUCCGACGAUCGUAUUUAUAGAUGGAAAUAUACUUUAUAUUUUGUAUCAUUGUGCCUAUAGCCUCUGCCACCUUGUAUAAACCCUGAUGUAUGCUAAGUGUUCUGGAUAUGAAUGUAUGUAUGGAAUUCUCGGGUGCCAA", "RBNS enrichment (R)": 1.01}
{"Strand": "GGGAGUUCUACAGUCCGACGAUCGGAUUGCAGGCUCACAAUCCAUGCAGAGAACUCUGAAGCCAGCAAAUUGUACCACCAUCCCCCGCUGCUCACCAAACAUGGGCGUACUGGAAGGCUGUUAUACUCAGUGCUGGAAUUCUCGGGUGCCAA", "RBNS enrichment (R)": 0.179}
{"Strand": "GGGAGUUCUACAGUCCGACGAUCCAGAGGCGAGCAGCCAAGAUGCCCAGGAGCAUGGAAGAAGAGUGACAAGGGCGUCCCCAAGAGACACCCUCACCGUACCAAAGAGCUGAGCUGCUUCUGGGUCUCACGGAUGGAAUUCUCGGGUGCCAA", "RBNS enrichment (R)": 0.509}
{"Strand": "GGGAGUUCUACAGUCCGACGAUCUCCUCAAGAUCUGGAAUAAAGCCAGGAGGAGGUGGAUGGAUGCCAUGGCGACUGGAAGACCAUUCCAACCUUGAAUCGUUACAGCGAUAGCAUAUCCUAUCCAACCAUACUGGAAUUCUCGGGUGCCAA", "RBNS enrichment (R)": 0.299}
{"data": "Study 4", "target": "Prothrombin, mature alpha-thrombin (F2, Homo sapiens, UniProt P00734)", "method": "aptamer microarray, sandwich", "molecule type": "DNA with 2'F-ANA", "medium": "in vitro", "concentration": "200 nM", "setting": "whole 15-mer aptamer, many near background", "added": "Cy3 exosite-II aptamer, 400 nM", "reading": "higher = stronger binding", "strand": "GGTTGGTGTGGTTGG"}
{"Modification": "2'F-ANA at 2 3 4 5 6 7 10 12 13 14 15", "mean fluorescence intensity": "79.8 a.u."}
{"Modification": "2'F-ANA at 3 6 7 12 14", "mean fluorescence intensity": "700 a.u."}
{"Modification": "2'F-ANA at 2 3 4 5 7 9 10 11 13 15", "mean fluorescence intensity": "87.5 a.u."}
{"Modification": "2'F-ANA at 1 3 4 5 7 8 10 11 13", "mean fluorescence intensity": "96.4 a.u."}
{"Modification": "2'F-ANA at 2 9 11 13", "mean fluorescence intensity": "350 a.u."}
{"Modification": "2'F-ANA at 1 3 5 9 10 12 15", "mean fluorescence intensity": "50.7 a.u."}
{"Modification": "2'F-ANA at 1 5 7 9 10 11 12 15", "mean fluorescence intensity": "46.8 a.u."}
{"Modification": "2'F-ANA at 2 3 5 9 11 12 14", "mean fluorescence intensity": "52.5 a.u."}
{"Modification": "2'F-ANA at 1 2 3 6 8 9 12 13 14 15", "mean fluorescence intensity": "87.3 a.u."}
{"Modification": "2'F-ANA at 3 4 5 6 7 8 9 11 12 13 14", "mean fluorescence intensity": "50.3 a.u."}
{"Modification": "2'F-ANA at 3 4 5 9 10 12", "mean fluorescence intensity": "63.7 a.u."}
{"Modification": "2'F-ANA at 1 3 5 6 7 10 11 12 13 15", "mean fluorescence intensity": "50.9 a.u."}
{"Modification": "2'F-ANA at 1 3 8 9 10 11 13 15", "mean fluorescence intensity": "78.1 a.u."}
{"Modification": "2'F-ANA at 4 5 8 9 10 12 13 14 15", "mean fluorescence intensity": "50 a.u."}
{"Modification": "2'F-ANA at 4 7 10 14", "mean fluorescence intensity": "63.9 a.u."}
{"Modification": "2'F-ANA at 1 2 8 9 10 11 12 13 14 15", "mean fluorescence intensity": "49.7 a.u."}
{"Modification": "2'F-ANA at 1 3 4 5 10 11 12 13 14", "mean fluorescence intensity": "42.8 a.u."}
{"Modification": "2'F-ANA at 3 4 5 6 7 9 10 11 12 13", "mean fluorescence intensity": "51.1 a.u."}
{"Modification": "2'F-ANA at 1 3 7 8 12 15", "mean fluorescence intensity": "753 a.u."}
{"Modification": "2'F-ANA at 1 4 5 6 13 14", "mean fluorescence intensity": "46.7 a.u."}
{"Modification": "2'F-ANA at 1 6 7 8 9 14 15", "mean fluorescence intensity": "77.5 a.u."}
{"note": "Excerpt of the above (study 4):"}
{"Modification": "2'F-ANA at 1 3 4 5 7 8 10 11 13", "mean fluorescence intensity": "96.4 a.u."}
{"Modification": "2'F-ANA at 3 6 7 12 14", "mean fluorescence intensity": "700 a.u."}
{"Modification": "2'F-ANA at 2 3 4 5 6 7 10 12 13 14 15", "mean fluorescence intensity": "79.8 a.u."}
{"Modification": "2'F-ANA at 1 6 7 8 9 14 15", "mean fluorescence intensity": "77.5 a.u."}
{"Modification": "2'F-ANA at 2 3 4 5 7 9 10 11 13 15", "mean fluorescence intensity": "87.5 a.u."}
